Published values collected from several papers.
Lines come from different studies, so protocols differ.
Potassium/sodium hyperpolarization-activated cyclic nucleotide-gated channel 1: Potassium/sodium hyperpolarization-activated cyclic nucleotide-gated channel 1 (Homo sapiens, UniProt O60741)
Chain of UniProt O60741 (whole entry, looked up): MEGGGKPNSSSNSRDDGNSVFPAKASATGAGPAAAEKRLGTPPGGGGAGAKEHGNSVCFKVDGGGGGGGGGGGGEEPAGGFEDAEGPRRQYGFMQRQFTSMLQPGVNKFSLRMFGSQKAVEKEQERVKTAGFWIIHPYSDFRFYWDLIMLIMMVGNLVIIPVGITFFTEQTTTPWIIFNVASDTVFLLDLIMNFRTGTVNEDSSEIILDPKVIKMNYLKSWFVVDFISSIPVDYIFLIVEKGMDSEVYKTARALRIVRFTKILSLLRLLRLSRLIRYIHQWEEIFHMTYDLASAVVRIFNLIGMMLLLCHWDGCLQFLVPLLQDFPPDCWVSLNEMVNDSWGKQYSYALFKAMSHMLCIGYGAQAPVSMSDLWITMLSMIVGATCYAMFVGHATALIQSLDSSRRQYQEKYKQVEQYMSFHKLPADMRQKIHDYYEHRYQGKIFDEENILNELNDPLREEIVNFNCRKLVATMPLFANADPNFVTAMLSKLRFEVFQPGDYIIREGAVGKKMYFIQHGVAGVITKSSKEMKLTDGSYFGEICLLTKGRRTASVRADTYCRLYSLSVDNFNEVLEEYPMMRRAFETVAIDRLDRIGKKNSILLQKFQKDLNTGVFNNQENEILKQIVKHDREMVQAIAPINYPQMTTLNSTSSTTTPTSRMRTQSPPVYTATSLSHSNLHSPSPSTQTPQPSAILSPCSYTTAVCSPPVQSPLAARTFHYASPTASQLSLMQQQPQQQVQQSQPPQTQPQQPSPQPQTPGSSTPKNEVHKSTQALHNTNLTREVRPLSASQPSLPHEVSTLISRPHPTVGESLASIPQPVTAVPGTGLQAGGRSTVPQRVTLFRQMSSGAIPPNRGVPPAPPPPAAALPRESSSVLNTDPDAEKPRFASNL
OPRM1: Mu-type opioid receptor (OPRM1, Homo sapiens, UniProt P35372)
Chain of UniProt P35372 (whole entry, looked up): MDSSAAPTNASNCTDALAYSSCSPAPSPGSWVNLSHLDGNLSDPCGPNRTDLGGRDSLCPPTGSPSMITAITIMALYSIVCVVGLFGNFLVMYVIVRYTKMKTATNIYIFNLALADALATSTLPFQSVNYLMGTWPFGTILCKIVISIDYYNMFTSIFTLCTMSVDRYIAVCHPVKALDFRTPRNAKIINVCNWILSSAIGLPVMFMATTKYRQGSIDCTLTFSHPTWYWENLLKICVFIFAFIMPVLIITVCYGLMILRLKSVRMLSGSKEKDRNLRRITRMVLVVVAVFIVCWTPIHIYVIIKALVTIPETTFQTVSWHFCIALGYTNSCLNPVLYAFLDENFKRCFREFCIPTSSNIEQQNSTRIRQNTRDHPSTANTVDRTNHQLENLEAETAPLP
4'-phosphopantetheinyl transferase PptT: 4'-phosphopantetheinyl transferase PptT (Mycobacterium tuberculosis, UniProt O33336)
Chain of UniProt O33336 (whole entry, looked up): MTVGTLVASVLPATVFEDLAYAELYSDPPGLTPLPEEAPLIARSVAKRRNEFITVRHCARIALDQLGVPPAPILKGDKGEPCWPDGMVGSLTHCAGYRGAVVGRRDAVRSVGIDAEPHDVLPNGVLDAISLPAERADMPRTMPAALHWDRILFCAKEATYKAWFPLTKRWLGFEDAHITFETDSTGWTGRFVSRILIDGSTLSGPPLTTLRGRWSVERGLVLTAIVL
Chain of UniProt P53350 (whole entry, looked up): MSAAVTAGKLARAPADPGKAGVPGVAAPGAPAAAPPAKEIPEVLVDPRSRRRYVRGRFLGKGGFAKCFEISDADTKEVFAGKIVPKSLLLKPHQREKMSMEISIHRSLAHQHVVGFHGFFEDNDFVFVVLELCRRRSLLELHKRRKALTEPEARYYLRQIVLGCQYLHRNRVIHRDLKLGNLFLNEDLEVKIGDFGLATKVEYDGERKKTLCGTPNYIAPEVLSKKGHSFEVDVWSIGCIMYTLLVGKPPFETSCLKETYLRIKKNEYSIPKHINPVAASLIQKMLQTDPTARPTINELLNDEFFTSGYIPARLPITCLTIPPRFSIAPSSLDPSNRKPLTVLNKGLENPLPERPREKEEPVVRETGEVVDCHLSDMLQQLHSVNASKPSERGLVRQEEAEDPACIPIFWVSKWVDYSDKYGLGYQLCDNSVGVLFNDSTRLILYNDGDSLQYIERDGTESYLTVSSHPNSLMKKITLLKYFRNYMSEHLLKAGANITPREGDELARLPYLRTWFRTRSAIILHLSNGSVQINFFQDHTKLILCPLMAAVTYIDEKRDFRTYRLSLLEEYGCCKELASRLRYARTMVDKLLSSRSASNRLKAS
Chain of UniProt P15056 (whole entry, looked up): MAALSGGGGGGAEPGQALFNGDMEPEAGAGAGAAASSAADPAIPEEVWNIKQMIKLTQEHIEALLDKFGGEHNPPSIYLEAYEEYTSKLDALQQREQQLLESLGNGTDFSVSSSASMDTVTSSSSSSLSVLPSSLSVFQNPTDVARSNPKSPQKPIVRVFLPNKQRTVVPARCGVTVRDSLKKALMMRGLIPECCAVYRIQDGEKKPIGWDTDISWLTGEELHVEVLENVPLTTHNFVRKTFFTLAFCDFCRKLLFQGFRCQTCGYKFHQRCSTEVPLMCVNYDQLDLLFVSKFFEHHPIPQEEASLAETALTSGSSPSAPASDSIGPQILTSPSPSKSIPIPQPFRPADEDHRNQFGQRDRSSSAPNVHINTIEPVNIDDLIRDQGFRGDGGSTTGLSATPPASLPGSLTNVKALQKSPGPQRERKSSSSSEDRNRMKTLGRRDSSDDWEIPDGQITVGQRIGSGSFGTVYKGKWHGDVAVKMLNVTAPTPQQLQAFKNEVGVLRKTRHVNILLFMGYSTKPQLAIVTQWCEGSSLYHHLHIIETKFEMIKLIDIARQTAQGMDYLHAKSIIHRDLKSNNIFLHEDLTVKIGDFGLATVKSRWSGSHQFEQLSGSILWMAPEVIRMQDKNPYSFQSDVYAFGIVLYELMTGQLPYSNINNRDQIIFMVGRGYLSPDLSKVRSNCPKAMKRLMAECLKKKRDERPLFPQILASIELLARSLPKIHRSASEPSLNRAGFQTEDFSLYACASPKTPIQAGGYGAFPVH
Chain of UniProt P18031 (whole entry, unmodified, looked up): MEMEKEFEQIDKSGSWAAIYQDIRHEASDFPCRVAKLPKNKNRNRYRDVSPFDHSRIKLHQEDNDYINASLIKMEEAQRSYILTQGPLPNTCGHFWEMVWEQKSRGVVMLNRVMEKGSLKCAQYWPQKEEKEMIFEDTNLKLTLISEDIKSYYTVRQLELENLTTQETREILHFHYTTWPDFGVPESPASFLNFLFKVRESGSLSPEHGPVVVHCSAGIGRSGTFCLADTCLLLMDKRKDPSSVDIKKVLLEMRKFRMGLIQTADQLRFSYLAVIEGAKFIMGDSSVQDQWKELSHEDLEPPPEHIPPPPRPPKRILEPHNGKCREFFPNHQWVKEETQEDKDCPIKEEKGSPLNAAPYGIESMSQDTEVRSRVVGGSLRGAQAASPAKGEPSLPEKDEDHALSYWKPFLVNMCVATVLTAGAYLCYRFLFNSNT
Chain of UniProt Q05655 (whole entry, looked up): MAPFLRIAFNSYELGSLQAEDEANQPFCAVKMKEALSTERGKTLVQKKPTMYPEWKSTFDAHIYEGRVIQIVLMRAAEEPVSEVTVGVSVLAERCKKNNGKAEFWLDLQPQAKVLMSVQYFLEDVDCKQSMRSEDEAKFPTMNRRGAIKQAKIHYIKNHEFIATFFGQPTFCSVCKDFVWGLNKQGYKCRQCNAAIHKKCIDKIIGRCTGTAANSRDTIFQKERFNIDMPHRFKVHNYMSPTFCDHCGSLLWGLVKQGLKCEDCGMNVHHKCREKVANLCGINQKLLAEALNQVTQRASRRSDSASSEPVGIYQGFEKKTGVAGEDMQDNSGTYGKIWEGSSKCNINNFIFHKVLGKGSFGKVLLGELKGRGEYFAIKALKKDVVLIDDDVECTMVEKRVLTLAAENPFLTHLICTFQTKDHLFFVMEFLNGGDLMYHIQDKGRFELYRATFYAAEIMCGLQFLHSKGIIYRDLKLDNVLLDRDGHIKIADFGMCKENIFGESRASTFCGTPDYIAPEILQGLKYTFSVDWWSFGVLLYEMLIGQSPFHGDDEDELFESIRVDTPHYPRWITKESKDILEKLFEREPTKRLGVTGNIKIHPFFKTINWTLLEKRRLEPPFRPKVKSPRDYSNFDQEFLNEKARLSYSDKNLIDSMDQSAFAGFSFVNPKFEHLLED
Chain of UniProt P34969 (whole entry, looked up): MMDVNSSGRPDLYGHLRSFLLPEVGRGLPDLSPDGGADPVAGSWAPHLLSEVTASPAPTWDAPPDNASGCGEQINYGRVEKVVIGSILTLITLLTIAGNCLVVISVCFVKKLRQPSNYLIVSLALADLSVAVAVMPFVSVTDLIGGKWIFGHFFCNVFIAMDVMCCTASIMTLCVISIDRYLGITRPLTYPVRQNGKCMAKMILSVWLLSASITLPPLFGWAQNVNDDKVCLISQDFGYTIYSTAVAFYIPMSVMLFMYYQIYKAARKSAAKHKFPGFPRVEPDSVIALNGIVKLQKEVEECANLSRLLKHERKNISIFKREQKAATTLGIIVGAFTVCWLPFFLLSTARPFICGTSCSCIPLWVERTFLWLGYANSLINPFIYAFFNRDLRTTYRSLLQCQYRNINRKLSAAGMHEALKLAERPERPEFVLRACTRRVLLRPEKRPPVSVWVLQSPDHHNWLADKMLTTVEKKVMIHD
Chain of UniProt P41145 (whole entry, looked up): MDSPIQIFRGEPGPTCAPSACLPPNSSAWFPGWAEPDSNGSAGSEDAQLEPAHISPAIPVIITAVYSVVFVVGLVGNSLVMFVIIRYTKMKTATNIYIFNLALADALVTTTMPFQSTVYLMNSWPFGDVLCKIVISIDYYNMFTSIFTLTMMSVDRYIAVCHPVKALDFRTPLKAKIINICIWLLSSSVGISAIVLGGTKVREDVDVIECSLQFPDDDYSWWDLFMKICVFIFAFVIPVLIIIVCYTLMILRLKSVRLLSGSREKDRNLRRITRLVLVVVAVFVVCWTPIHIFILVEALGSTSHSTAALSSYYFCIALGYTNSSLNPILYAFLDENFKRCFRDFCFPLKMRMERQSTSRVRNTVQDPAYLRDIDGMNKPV

With `Nc1ncc(-c2nc(N3CCOCC3)nc(N3CCOCC3)n2)c(C(F)F)n1` the remaining binding was 48% (FLT3 (Homo sapiens, UniProt P36888, K663Q); binding, competition with immobilised ligand; 10 µM).
For `C#Cc1n[nH]c2c(-c3cn(C(C)c4ccccn4)c(=O)[nH]c3=O)cc(F)cc12` (stereo not drawn), the inhibition was 9.8% (PLK1 (Homo sapiens, UniProt P53350); enzyme activity, inhibitor; 1 µM).
With `CC12CC3CC(C)(C1)CC(N)(C3)C2` the inhibition was 0.998% (Potassium/sodium hyperpolarization-activated cyclic nucleotide-gated channel 1; ion current, inhibitor; 3 µM).
For `CN1CCC[C@H]1c1cccnc1`, the inhibition was -10% (HTR7 (Homo sapiens, UniProt P34969); ligand displacement; 50 µM).
The Emax of `C=CCN1C[C@H]2CC[C@@H](C1)N2c1cccc(O)c1` is reported as 85.8% (OPRM1; cAMP, agonist; OPRM1).
For `Cc1nn(C)cc1-c1nc2c(N3CCN(Cc4ccc(Cl)cc4)CC3)c(Cl)cnc2[nH]1`, the remaining binding was 100% (DSTYK (Homo sapiens, UniProt Q6XUX3); binding, competition with immobilised ligand; 1 µM).
With `CCCCC/C=C\C/C=C\C/C=C\Cc1ccccc1CCCC(=O)OC(CO)CO` the Emax was 69% (CNR2 (Homo sapiens, UniProt P34972); β-arrestin recruitment, agonist).
`COc1ncccc1-c1cnn2ccc(N3CCN(C(=O)OC(C)C)CC3)nc12` gave a remaining binding of 83% (PRKCD (Homo sapiens, UniProt Q05655); binding, competition with immobilised ligand; 1 µM).
`C=C(C)[C@@H]1CC[C@@H](C)[C@@H]2CCC(C)=C[C@@H]21` has a ΔTm of under 1 °C (PTPN1 (Homo sapiens, UniProt P18031); thermal stability, DSF).
`[2H]c1c([2H])c([C@]2([2H])CCCN2C(=O)C(C)(C)Oc2ccc3cn[nH]c3c2)c([2H])c([2H])c1C([2H])([2H])[2H]` has a remaining binding of 100% (BRAF (Homo sapiens, UniProt P15056); binding, competition with immobilised ligand; 1 µM).
With `N#Cc1cc2c(=O)n(Cc3cccnc3)c(=S)[nH]c2cn1` the IC50 was 6.11 µM (4'-phosphopantetheinyl transferase PptT; enzyme activity, inhibitor, FP).
For `CSCC[C@H](NC(=O)[C@H](CCC(N)=O)NC(=O)[C@H](Cc1c[nH]cn1)NC(=O)[C@@H]1CCCN1C(=O)[C@H](Cc1ccccc1)NC(=O)[C@H](CCC(N)=O)NC(=O)[C@@H](N)Cc1ccccc1)C(=O)N[C@H](C(=O)N[C@@H](Cc1ccccc1)C(=O)O)[C@@H](C)O`, the IC50 was 10.7 µM (HLA class I histocompatibility antigen, A alpha chain (Homo sapiens, UniProt P04439); cell-free assay).
With `CCN(CC)CCCC[C@H](NC(=O)[C@H](CC(C)C)NC(=O)[C@H](C)NC(=O)[C@H](Cc1ccccc1)NC(=O)c1ccc(C(C)(C)C)cc1)C(=O)N[C@@H](CO)C(=O)OC` the remaining binding was 24.6% (TACR2 (Homo sapiens, UniProt P21452); ligand displacement, radioligand; 10 µM).
With `CC(C)[C@@H]1NC(=O)[C@@H](Cc2ccccc2)NC(=O)[C@H](CCCNC(=N)N)NC(=O)[C@@H]([C@H](C)O)NC(=O)[C@H](CC(N)=O)NC(=O)[C@@H](C(C)C)NC1=O` the IC50 was over 16 µg/mL (Balamuthia mandrillaris; parasite growth, ATP luminescence).
With `c1cncc([C@@H]2CCCN2)c1` the inhibition was 1.26% (SLC6A3 (Homo sapiens, UniProt Q01959); ligand displacement; 50 µM).
With `Oc1cccc(N2C[C@H]3CC[C@@H](C2)N3CCCc2ccccc2)c1` the Emax was 0% (OPRK1 (Homo sapiens, UniProt P41145); cAMP, agonist).
For `O=c1c2cc(Cl)c(CO)cc2[nH]c(=S)n1Cc1cncnc1`, the IC50 was 2.05 µM (4'-phosphopantetheinyl transferase PptT; enzyme activity, inhibitor, FP).
`CC(C)CC(=O)OC[C@H]1O[C@@](C#N)(c2ccc3c(N)ncnn23)[C@H](O)[C@@H]1O` has an inhibition of 13% (OPRM1; cell-free assay; 20 µM).
With `CCCN1C[C@H](CSC)C[C@@H]2c3cccc4[nH]cc(c34)C[C@H]21` the inhibition was 1.52% (Potassium/sodium hyperpolarization-activated cyclic nucleotide-gated channel 1; ion current, inhibitor; 3 µM).
`Nc1ncnc2c1ncn2[C@@H]1O[C@H](C[C@@H](N)CC[C@H](N)C(=O)O)[C@@H](O)[C@H]1O` gave an inhibition of 11.2% (RNMT (Homo sapiens, UniProt O43148); enzyme activity, inhibitor; 48.83 nM).
`C[C@H]1NC(=O)[C@H](Cc2ccccc2)NC(=O)[C@@H](Cc2ccccc2)NC(=O)[C@H](Cc2ccccc2)NC(=O)[C@@H](CCCN)NC(=O)[C@H](CCCN)NC1=O` gave an IC90 of 12.2 µM (Balamuthia mandrillaris; parasite growth, ATP luminescence).

A few entries again:
`C=C(C)[C@@H]1CC[C@@H](C)[C@@H]2CCC(C)=C[C@@H]21` has a ΔTm of under 1 °C (PTPN1 (Homo sapiens, UniProt P18031); thermal stability, DSF).
`[2H]c1c([2H])c([C@]2([2H])CCCN2C(=O)C(C)(C)Oc2ccc3cn[nH]c3c2)c([2H])c([2H])c1C([2H])([2H])[2H]` has a remaining binding of 100% (BRAF (Homo sapiens, UniProt P15056); binding, competition with immobilised ligand; 1 µM).
With `N#Cc1cc2c(=O)n(Cc3cccnc3)c(=S)[nH]c2cn1` the IC50 was 6.11 µM (4'-phosphopantetheinyl transferase PptT; enzyme activity, inhibitor, FP).
